Measurements collected from several papers.
Parts stem from different laboratories: compare values within a part only. Positions count from the first letter of the parent shown.

Set 1
Target: ABI1, truncated, D143A, DHFR fusion (Arabidopsis thaliana)
Technique: DHFR PCA, deep sequencing
Matrix: yeast
Setting: methotrexate growth selection, single substitutions
With: (+)-ABA 1.4 µM
Relative to: wild-type fitted maximum
Direction: higher = stronger binding
Parent: PYL1, truncated, DHFR fusion (Arabidopsis thaliana); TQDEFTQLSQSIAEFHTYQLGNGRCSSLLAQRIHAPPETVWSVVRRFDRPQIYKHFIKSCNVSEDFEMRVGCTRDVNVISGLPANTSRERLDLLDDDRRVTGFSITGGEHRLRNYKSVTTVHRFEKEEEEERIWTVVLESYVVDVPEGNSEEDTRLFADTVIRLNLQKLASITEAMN; partner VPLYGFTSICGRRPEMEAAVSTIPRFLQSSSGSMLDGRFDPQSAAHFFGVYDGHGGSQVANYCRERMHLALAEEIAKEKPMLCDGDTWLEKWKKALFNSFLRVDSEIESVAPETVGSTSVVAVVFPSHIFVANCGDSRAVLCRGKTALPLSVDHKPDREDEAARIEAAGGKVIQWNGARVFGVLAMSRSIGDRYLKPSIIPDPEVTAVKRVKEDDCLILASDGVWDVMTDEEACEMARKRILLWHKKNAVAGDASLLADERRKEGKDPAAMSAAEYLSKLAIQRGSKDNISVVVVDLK
| Change | relative binding score [%] |
| --- | --- |
| A175R | 58.3 |
| N85F | 61.4 |
| V44C | -7.44 |
| V118E | 2.25 |
| S140K | 1.96 |
| P50R | -0.593 |
| F157V | 10.6 |
| Q31A | -5.91 |
| D159V | -4.78 |
| S11P | 65.4 |
| D144I | -25.2 |
| W41F | -10.6 |
| R132F | 48.5 |
| V137P | -1.9 |
| I12C | 19.1 |
| S59I | -0.122 |
| T17K | 11.3 |
| T86A | 22.9 |
| A30Y | 45.3 |
| E174C | 6.7 |
| I57G | -2.33 |
| I162E | 6.06 |
| D153K | -7.46 |

Set 2
Target: Sal-like protein 4, full length isoform B (SALL4, Homo sapiens, UniProt Q9UJQ4-2, residues 1-616)
Technique: universal PBM
Molecule type: double-stranded DNA, one strand shown
Matrix: in vitro
Tested at: not given
Setting: 8-mer, flanks averaged, mean of replicates
Direction: higher = stronger binding
| Strand | E-score |
| --- | --- |
| ATAAGGTC | 0.162 |
| CCCGTAGC | -0.323 |
| CACTACAA | 0.114 |
| CCTTCTTA | 0.0304 |
| GTAACGGA | -0.0582 |
| AGCTATAC | 0.138 |
| CACCATCC | -0.1 |
| GTTCCGCA | -0.102 |
| GCAGACCC | -0.32 |
| ATTTAGCC | 0.139 |
| AGCTCTAT | -0.0284 |
| AATACTTC | 0.206 |
| CGGCAACA | -0.039 |
| ACGAGCGG | -0.239 |
| CTAGTGTC | 0.0249 |
| AGAGGGCC | -0.237 |
| ACGGACCT | -0.297 |

Set 3
Target: CCNA1, cyclin fold, Cln2 fusion (human)
Technique: yeast growth competition, sequencing
Matrix: yeast
Setting: weak parent motif
Relative to: not given
Direction: higher = stronger binding
Parent: BRCA2 docking peptide (human); PSIKRNLLNEFDR; partner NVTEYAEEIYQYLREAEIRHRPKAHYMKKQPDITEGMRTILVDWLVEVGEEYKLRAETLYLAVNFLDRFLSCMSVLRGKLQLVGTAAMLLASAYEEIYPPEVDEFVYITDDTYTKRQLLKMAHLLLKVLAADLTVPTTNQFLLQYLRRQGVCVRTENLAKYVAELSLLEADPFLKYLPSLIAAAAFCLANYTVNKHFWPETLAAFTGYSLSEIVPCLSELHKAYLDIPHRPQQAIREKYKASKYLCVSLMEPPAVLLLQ
| Change | normalised enrichment score |
| --- | --- |
| PSIKRNLLNEFDE [R13E] | 0.7 |
| PSIKRNLLREFDR [N9R] | 0.646 |
| PSIKRNLLNEFDC [R13C] | 0.273 |
| PSIKRNLLNEFDQ [R13Q] | 0.539 |
| PSIKRNLLNEFDS [R13S] | 0.642 |
| PEIKRNLLNEFDR [S2E] | 0.473 |
| PSIKRNLLNEIDR [F11I] | 0.928 |
| PSIKRNLLNEFKR [D12K] | 0.274 |
| PSIKRNLLNFFDR [E10F] | 0.141 |
| PSIKRNLLNEVDR [F11V] | 0.378 |
| PSIKRNALNEFDR [L7A] | 0.048 |
| PSIKRNLLNEFDW [R13W] | 0.945 |
| PSIKRNLLWEFDR [N9W] | 0.576 |
| PSIKRNLVNEFDR [L8V] | 0.443 |
| PYIKRNLLNEFDR [S2Y] | 0.28 |
| PSIKRNLLNSFDR [E10S] | 0.345 |

Set 4
Target: RNA binding protein fox-1 homolog 2, RRM domain, GST-SBP tag (RBFOX2, Homo sapiens, UniProt O43251-10, residues 100-194)
Technique: RNA Bind-n-Seq
Molecule type: RNA
Matrix: in vitro
Tested at: 365 nM
Setting: natural RNA segment, single round, ends assumed
Relative to: no-protein control
Direction: higher = stronger binding
Shared flanks, not repeated: GGGAGUUCUACAGUCCGACGAUC … UGGAAUUCUCGGGUGCCAA
Residues (chain): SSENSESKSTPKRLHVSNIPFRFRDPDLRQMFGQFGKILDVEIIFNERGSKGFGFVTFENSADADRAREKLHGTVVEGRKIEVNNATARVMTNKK
| Strand | RBNS enrichment (R) |
| --- | --- |
| AGGAAUUGCUGGGCAGGUCUCCGACUAAAGGUCUUAUGAUGAAAAGGAAGAAACAAGCCCCCAACACAAGGCUCUGAUACUACUGGUAAAUGUAGGAGAGAAUUAAGAAU | 0.73 |
| AGUGACUCUCUGUCAGAACAAAUGCUGUGCAGGUGAUAAAGCUAUGUAUUGGAAGUCAGAUUUCUAGUAGGAAAUGUGGUCAAAUCCCUGUUGGUGAACAAAUGGCCUUU | 0.346 |
| UUCCCAAAAUGAGAGGCACCAACUUCAAGAAUUGCCUCCUAGGGGGAGGCACGAGCCAGAGACCAGGACCUGCAGGUCCUUUGCUGCUGGGAACUCUCCCAUUUUCAGGU | 0.581 |
| AUGUUAAUGAUGGUGCAAUACUCUCACCUGCAGUAGAACUGAGUUCUGCUGCAGCUUGUGUAAAAGUGGGCAGUACACAAGUACGUCCCAAAGCCUGUGAGCAGUAUACG | 0.163 |
| CGAGGCCUCUGUGGUUGUGCCGCGGGUUUGCUGCUGUGCUGAGUCCUUCUGGGGGAGCCCUAAGAGGUGGGGAGCAGAGGACUUUUGCUCAGACACCCUUUGCCUGGAAG | 0.851 |
| AAUCCCUGCAGCCUAGCCUCCCCACCCUCCAGAACCUGGAAUAGCUGAGCAGCUCAGGCUGUGGCCCUUACCUCCAGUCCUCACCUCAACCUGCGCUGCAGCCUCCCUCC | 0.336 |
| AGGGAUUUUUGUUCUUGUUGUUCUCGUUGUUGUUUUAAGUUUACUGGGGAAAGUGCAUUUGGCCAAAUGAAAUGGUAGUCAAGCCUAUUGCAACAAAGUUAGGAAGUUUG | 1.43 |
| CCUGCUCAGUUAUCUAAUGUCUUAGAUCAGUGGUCCCCAAAUUUUGCUACAUAUUAGAAUCAUCUGGGAGGUUUUAAACAAAUUCUGAUGCCCAGGUUGCACCCCAUGCC | 2.2 |

For quick reference, copied from above (set 1):
| Change | relative binding score [%] |
| --- | --- |
| S11P | 65.4 |
| D144I | -25.2 |
| W41F | -10.6 |
| R132F | 48.5 |
| V137P | -1.9 |
| I12C | 19.1 |
| S59I | -0.122 |
| T17K | 11.3 |
| T86A | 22.9 |
| A30Y | 45.3 |
